Measurements gathered from unrelated publications.
Every numbered part comes from another study and shows a few of its results, in no order.
Sequence of UniProt P16234 (whole entry, looked up): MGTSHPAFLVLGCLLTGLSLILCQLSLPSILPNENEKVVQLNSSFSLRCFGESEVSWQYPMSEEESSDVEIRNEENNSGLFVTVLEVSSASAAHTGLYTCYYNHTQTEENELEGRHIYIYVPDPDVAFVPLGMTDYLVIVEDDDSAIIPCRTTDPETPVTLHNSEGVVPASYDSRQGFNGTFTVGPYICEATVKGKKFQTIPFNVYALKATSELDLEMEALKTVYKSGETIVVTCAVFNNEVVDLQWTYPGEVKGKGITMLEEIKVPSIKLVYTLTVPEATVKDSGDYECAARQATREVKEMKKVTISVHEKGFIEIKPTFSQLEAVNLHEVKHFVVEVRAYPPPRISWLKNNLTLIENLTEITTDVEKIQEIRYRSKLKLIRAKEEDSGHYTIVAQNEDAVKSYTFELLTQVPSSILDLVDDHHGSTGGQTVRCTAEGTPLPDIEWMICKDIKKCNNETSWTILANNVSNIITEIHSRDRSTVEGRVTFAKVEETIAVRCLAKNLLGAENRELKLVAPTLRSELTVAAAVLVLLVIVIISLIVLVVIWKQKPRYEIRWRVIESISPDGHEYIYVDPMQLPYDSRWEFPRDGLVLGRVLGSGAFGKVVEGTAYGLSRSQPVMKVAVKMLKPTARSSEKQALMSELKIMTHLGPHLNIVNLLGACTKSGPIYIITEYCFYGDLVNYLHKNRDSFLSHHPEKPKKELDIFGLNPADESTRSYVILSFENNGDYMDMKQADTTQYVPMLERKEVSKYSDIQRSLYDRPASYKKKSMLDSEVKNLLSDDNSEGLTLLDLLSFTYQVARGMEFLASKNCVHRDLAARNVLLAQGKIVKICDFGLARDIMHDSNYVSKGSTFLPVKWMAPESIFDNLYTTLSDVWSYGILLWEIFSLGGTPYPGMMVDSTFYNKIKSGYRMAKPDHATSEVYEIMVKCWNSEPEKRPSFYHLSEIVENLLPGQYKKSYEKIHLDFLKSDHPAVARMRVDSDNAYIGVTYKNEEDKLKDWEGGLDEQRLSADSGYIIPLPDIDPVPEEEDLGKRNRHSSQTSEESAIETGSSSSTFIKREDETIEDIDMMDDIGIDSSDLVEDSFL

Block 1
Target: Prothrombin, mature alpha-thrombin (F2, Homo sapiens, UniProt P00734)
Method: aptamer microarray, sandwich
Form: DNA with 2'F-ANA
Sample: in vitro
Tested at: 200 nM
Setting: whole 15-mer aptamer, many near background
Added: Cy3 exosite-II aptamer, 400 nM
Direction: higher = stronger binding
Oligonucleotide: GGTTGGTGTGGTTGG
Modification | mean fluorescence intensity [a.u.]
2'F-ANA at 1 2 4 5 6 14 | 47.1
2'F-ANA at 1 6 8 13 15 | 141
2'F-ANA at 2 4 7 9 10 12 13 | 103
2'F-ANA at 1 3 6 7 8 9 11 13 15 | 212
2'F-ANA at 2 5 6 8 9 11 | 90.4
2'F-ANA at 1 2 3 4 6 7 9 11 14 | 56.1
2'F-ANA at 2 6 7 9 13 | 243
2'F-ANA at 1 2 4 5 11 12 13 15 | 69.3

Block 2
Target: Centromere-binding protein 1, full length, N-terminal tag (CBF1, Saccharomyces cerevisiae, UniProt P17106, residues 1-351)
Sequence of UniProt P17106 (whole entry, looked up): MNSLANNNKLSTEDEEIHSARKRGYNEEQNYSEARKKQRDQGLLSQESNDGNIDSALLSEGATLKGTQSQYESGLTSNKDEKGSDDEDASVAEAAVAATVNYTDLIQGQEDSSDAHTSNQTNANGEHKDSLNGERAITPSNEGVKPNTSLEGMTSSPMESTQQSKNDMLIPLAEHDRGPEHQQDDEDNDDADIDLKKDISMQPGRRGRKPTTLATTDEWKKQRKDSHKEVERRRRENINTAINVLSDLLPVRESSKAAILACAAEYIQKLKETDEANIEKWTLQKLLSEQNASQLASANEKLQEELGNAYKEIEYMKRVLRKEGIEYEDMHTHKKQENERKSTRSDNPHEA
Method: protein-binding microarray
Form: double-stranded DNA, one strand shown
Sample: in vitro
Tested at: 0.8 µM
Setting: whole 60-bp probe, no competitor
Direction: higher = stronger binding
All sequences stand within: … GTCTTGATTCGCTTGACGCTGCTG
Oligonucleotide | fluorescence intensity [a.u.]
CTATTCTTTTAGTAAACCGTCACGTGCAAGAGATTC | 17800
GAAGATGAGTAGGTTAGCGTCACCTAGTGGCGGTAG | 487
CTAATGAAGAAAGATCAGGAGAAAAATTTTTTTTTC | 513
GAAATTTGTCCAATCGACGTGGTGGAAAGACTCTAG | 528
GAATGTTGAAGATATTGCGTGAAAATGTGAAGATAG | 633
CTAATCAGTGGTAGCAACGTGGTAGCACGGAAGTTC | 576
CTATCAAAAAGCCATCACGTGGATCCCCGAAAATTC | 7140
GAAGGTACTCATTATACCGTGATTACCAATTTCTAG | 677

Block 3
Target: Cyclic AMP-responsive element-binding protein 1 (CREB1, Homo sapiens, UniProt P16220, residues 1-327, full length assumed)
Sequence of UniProt P16220 (whole entry, looked up): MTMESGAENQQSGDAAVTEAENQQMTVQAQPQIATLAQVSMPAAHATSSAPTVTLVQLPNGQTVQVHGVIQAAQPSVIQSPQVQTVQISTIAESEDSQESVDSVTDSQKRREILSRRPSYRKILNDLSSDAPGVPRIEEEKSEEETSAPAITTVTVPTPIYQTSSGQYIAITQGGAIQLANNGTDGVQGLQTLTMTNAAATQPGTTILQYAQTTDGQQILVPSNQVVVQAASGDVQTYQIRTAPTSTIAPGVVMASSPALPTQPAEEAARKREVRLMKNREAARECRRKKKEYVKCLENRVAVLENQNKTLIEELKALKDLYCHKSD
Method: protein-binding microarray
Form: double-stranded DNA, one strand shown
Sample: in vitro
Tested at: not given
Setting: k-mer, scored over probes, only values ≥0.25
Direction: higher = stronger binding
Oligonucleotide | E-score
CGTGTCA | 0.333
GACGTAA | 0.436
CATCACG | 0.295
ACGTACA | 0.283
CATATAA | 0.27
AGTGACG | 0.462
CATAACA | 0.28
ATATTAC | 0.308

Other studies, line by line
SMILES | target | test | conditions | how to read | endpoint | value
CCCCc1c(-c2ccc(O)cc2)[nH]c2nccnc12 | Platelet-derived growth factor receptor alpha (PDGFRA, Homo sapiens, UniProt P16234) | enzyme activity, inhibitor | 0.5 µM | relative to: control | remaining activity | 95.1%

Excerpt of the above (block 2):
Oligonucleotide | fluorescence intensity [a.u.]
CTAATGAAGAAAGATCAGGAGAAAAATTTTTTTTTC | 513
GAAATTTGTCCAATCGACGTGGTGGAAAGACTCTAG | 528
GAATGTTGAAGATATTGCGTGAAAATGTGAAGATAG | 633
CTAATCAGTGGTAGCAACGTGGTAGCACGGAAGTTC | 576
